Results gathered from unrelated publications.
Protocols differ between the studies behind these lines. “And” joins repeats or separate records; there may be more than shown. ± gives the spread as reported.
SET Y135C: Protein SET (SET, Homo sapiens, UniProt Q01105, Y135C)
NF-kappa-B inhibitor alpha: NF-kappa-B inhibitor alpha (Homo sapiens, UniProt P25963)
SMARCA2: SWI/SNF-related matrix-associated actin-dependent regulator of chromatin subfamily A member 2 (SMARCA2, Homo sapiens, UniProt P51531)
Aryl hydrocarbon receptor: Aryl hydrocarbon receptor (Danio rerio, UniProt Q9YGV3)
ABL1 T315I: Tyrosine-protein kinase ABL1 (ABL1, Homo sapiens, UniProt P00519, T315I)
T1: DNA aptamer; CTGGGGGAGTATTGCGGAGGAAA

The remaining activity of `O=C(O)c1ccc(Nc2ncc3c(n2)-c2ccc(Cl)cc2C(c2c(F)cccc2F)=NC3)cc1` is reported as 115% (human c-RAF(h); kinase activity; 1 µM).
`c1ccc(-n2ccc3cnc(Nc4ccc(N5CCOCC5)cc4)nc32)nc1`: “reduction of histone H3 Ser10 phosphorylation” about 90% (Aurora kinase (ark1, Schizosaccharomyces pombe, UniProt O59790); Schizosaccharomyces pombe cells, MDR-sup; 5 µM).
`Oc1ccccc1-c1n[nH]cc1-c1ccnc2ccccc12` — result for “log2 fold change”: 0.06 (Serine/threonine-protein kinase ATG1 (ATG1, Candida albicans, UniProt Q5A649); kinase binding, MIB/MS competition; Candida albicans lysate; 1 µM; relative to: DMSO, negative = stronger binding).
`CCN(CCO)CCCC(C)Nc1ccnc2cc(Cl)ccc12` (stereo not shown): “inactivation slope factor” 5.85 mV/e-fold and 5.88 mV/e-fold and 5.29 mV/e-fold (SCN5A (Homo sapiens, UniProt Q14524); sodium current, whole-cell patch clamp; 10 µM, without ATX-II).
For `CCCCCCCCCCCCC/C=C/[C@@H](O)[C@H](CO)NC(=O)CCCCCCCCCCCCCCCCC`, “lipid fraction bound” read 72.7% (SET Y135C; lipid binding, GFP pull-down LC-MS/MS; A549 overexpressing GFP-tagged protein; relative to: eluate plus flow-through).
`CCCCC[C@H](O)/C=C/[C@H]1C(=O)C[C@H](O)[C@@H]1C/C=C\CCCC(=O)O` — result for “Gs protein activation”: 60.3% (PTGDR (Homo sapiens, UniProt Q13258, M112A); agonist, ONE-GO BRET; 0.01953 µM (19.5 nM); relative to: wild-type receptor maximum).
With `Nc1nc2c(ncn2[C@@H]2O[C@H](COP(=O)(O)O)[C@@H](O)[C@H]2O)c(=O)[nH]1` the reaction rate was 1.16 s⁻¹ and 1.47 s⁻¹ and 1.45 s⁻¹ (GUK1 (Homo sapiens, UniProt Q16774, S37P); enzyme activity, NADH-coupled; 500 µM).
`CC[C@H](C)[C@H](NC(=O)[C@H](CCCNC(=N)N)NC(=O)[C@H](Cc1c[nH]cn1)NC(=O)[C@H](CCCNC(=N)N)NC(=O)[C@H](CC(=O)O)NC(=O)[C@H](CC(=O)O)NC(=O)[C@@H](NC(=O)[C@H](CC(=O)O)NC(=O)[C@@H]1CCCN1C(=O)[C@@H](N)CC(C)C)[C@@H](C)O)C(=O)N[C@@H](CCC(=O)O)C(=O)N[C@@H](CCC(=O)O)C(=O)N[C@@H](CCCCN)C(=O)N[C@@H](CCCNC(=N)N)C(=O)N[C@@H](CCCCN)C(=O)N[C@@H](CCCNC(=N)N)C(=O)N[C@H](C(=O)N[C@@H](C)C(=O)N[C@@H](CCC(=O)O)C(=O)N[C@H](C(=O)N[C@@H](Cc1ccccc1)C(=O)N[C@@H](CCCCN)C(=O)N[C@@H](CO)C(=O)N[C@H](C(=O)N[C@@H](CCSC)C(=O)N[C@@H](CCCCN)C(=O)N[C@@H](CCCCN)C(=O)N[C@@H](CO)C(=O)N1CCC[C@H]1C(=O)N[C@@H](Cc1ccccc1)C(=O)N[C@@H](CC(N)=O)C(=O)NCC(=O)N1CCC[C@H]1C(=O)O)[C@@H](C)CC)[C@@H](C)O)[C@@H](C)O` gave a -TΔS of -5.2 ± 0.1 kcal/mol (NF-kappa-B inhibitor alpha; binding, ITC; pH 7.5, 293 K, 50 mM NaCl).
Under “LDL lipid peroxidation”, `NC/C(=C\F)COc1cccc(Cn2c(=S)[nH]c(=O)c3[nH]cnc32)c1` is recorded as 105% and 96.3% and 87.4% (Myeloperoxidase (MPO, Homo sapiens, UniProt P05164); inhibitor, cholesteryl ester hydroperoxide; 0.00023 µM; relative to: control).
`CN(C)c1ncc(F)c(-c2cnn3ncccc23)n1` has a remaining binding of 98% (ABL1 (Homo sapiens, UniProt P00519, H396P); KINOMEscan; 1 µM; relative to: control).
The Kd of `Nc1ncnc2c1ncn2[C@@H]1O[C@H](COP(=O)(O)OP(=O)(O)OP(=O)(O)O)[C@@H](O)[C@H]1O` is reported as 315 µM (T1, DNA aptamer; amperometry; fit, pseudo-first order kinetic, apparent sensor).
`COc1cc(-c2cc(C(C)=O)n3ccccc23)cc(OC)c1Cn1ccnc1` gave a ΔTm of -3 °C (SMARCA2).
`O=C(c1cc(Cc2n[nH]c(=O)c3ccccc23)ccc1F)N1CCn2nc(C(F)(F)F)nc2C1` gave an affinity ratio of 4.4 fold (PARP1/HPF1 (Homo sapiens, UniProt P09874+Q9NWY4); fluorescence polarization; with: HPF1; relative to: PARP1 alone).
For `O=C(COP(=O)(O)O)[C@@H](O)[C@H](O)[C@H](O)COP(=O)(O)O`, the enzyme activity was 91.2 and 98.8 and 98.6 (PMM2 (Homo sapiens, UniProt O15305); 0.005 mM, unit not given; relative to: activity at 0 mM set to 100).
`Cc1cccc2c1ccc1cc(C(C)C)ccc12` gave a fold change of 1.55 (Aryl hydrocarbon receptor; reporter gene, agonist, luciferase reporter; ZF-4; 370.37 µM; relative to: vehicle control).
Under “normalised MST signal”, `NCCCC(=O)O` is recorded as 0.178 (SLC6A6 (Homo sapiens, UniProt P31641, L306A); binding, microscale thermophoresis; 125 µM, room temperature, with: 50 nM labelled protein; higher = more binding).
`C=CC(=O)N1CCC(COCC(=O)N2CCN(c3nc(-c4cnc(N)nc4C(F)F)nc(N4CCOC[C@@H]4C)n3)CC2)CC1` gave a remaining binding of 90% (CDK16 (Homo sapiens, UniProt Q00536); KINOMEscan; 1 µM).
With `Nc1ncnc2c1ncn2[C@@H]1O[C@H](COP(=O)(O)OP(=O)(O)OP(=O)(O)O)[C@@H](O)[C@H]1O` the normalized current was 0.2 and 0.23 and 0.29 (P2X purinoceptor 7 (P2rx7, Rattus norvegicus, UniProt Q64663, I214A/Q143A/R125A); ion current, agonist, two-electrode voltage clamp; Xenopus laevis oocytes; 30 µM, triple mutant; relative to: 100 µM compound response).
`Nc1ncnc2c1ncn2[C@@H]1O[C@H](COP(=O)(O)CP(=O)(O)OP(=O)(O)O)[C@@H](O)[C@H]1O` has a specific binding of 348 corrected cpm and 408 corrected cpm (P2X purinoceptor 1 (P2RX1, Homo sapiens, UniProt P51575, D170A); saturation binding; 103 nM).
The binding stoichiometry of `Nc1nc2c(ncn2[C@@H]2O[C@H](COP(=O)(O)OP(=O)(O)O)[C@@H](OP(=O)(O)OP(=O)(O)O)[C@H]2O)c(=O)[nH]1` is reported as 1.02 ± 0.002 (Xanthine-guanine phosphoribosyltransferase (Escherichia coli, UniProt P0A9M5); ITC; concentration not given).
Under “bound endogenous lipid”, `CCCCCCCCCCCCC/C=C/[C@@H](O)[C@H](CO)NC(=O)CCCCCCCCCCCCCCCCCCC` is recorded as 8.7 (Protein SET (SET, Homo sapiens, UniProt Q01105); lipid binding, GFP pull-down LC-MS/MS; A549 overexpressing GFP-tagged protein; unit not given; relative to: vector-transfected cells).
The melting temperature of `Cc1cc(NS(=O)(=O)c2ccc(N)cc2)no1` is reported as 55.7 °C (folP (Bacteria, UniProt P0AC13); CETSA HiBiT; Escherichia coli, whole cells).
`O=c1nc(SCc2cc(F)cc(C(F)(F)F)c2)nc(SCc2ccc3sccc3c2)[nH]1` — result for “ATP hydrolysis rate”: 0.819 µM/min and 0.695 µM/min (TOP2A (Homo sapiens, UniProt P11388); ATPase activity; 1.95 µM, with: ATP 0.075 mM).
`Nc1nnc(-c2ccccc2O)cc1N1CCN(Cc2ccc(OCCOCCNc3cccc4c3C(=O)N(C3CCC(=O)NC3=O)C4=O)c(F)c2)CC1` (stereo not shown): “decrease in protein level” 76% (SMARCA2; immunoblot; mouse, NCI-H322 xenograft, tumour lysate; dose not given, end of study; relative to: vehicle).
`COc1ccc(F)cc1C(=O)NCc1ccc(-c2nn([C@@H](C)C(F)(F)F)c(N)c2C(N)=O)cc1` has a remaining activity of 60.5 ± 3.5% (Aurora kinase A (AURKA, Homo sapiens, UniProt O14965); 1000 nM, with: ATP at Km).
For `N[C@H]1CCN(c2nccc(-c3cnn4ncccc34)n2)C1`, the remaining binding was 100% (ABL1 T315I; KINOMEscan; 1 µM; relative to: control).
Under “lipid fraction bound”, `CCCCCCCCCCCCC/C=C/[C@@H](O)[C@H](CO)NC(=O)CCCCCCCCCCCCCCCCCCCCCCCCC` is recorded as 10.9% (SET Y135C; lipid binding, GFP pull-down LC-MS/MS; A549 overexpressing GFP-tagged protein; relative to: eluate plus flow-through).
`Nc1nc(=O)n([C@H]2C[C@H](O)[C@@H](CO)O2)cc1-c1cc2ccccc2o1` gave a kcat of 2.5 to 3.3 s⁻¹ (Cytidine deaminase (CDA, Homo sapiens, UniProt P32320); deamination, substrate, real-time fluorescence; pH 7.4, 37 °C).
The protein adduct of `CCC1(O)CCCN(C(=O)c2ccc(-c3ccc(F)c(NC(=O)CCl)c3)cc2)C1` (stereo not shown) is reported as 72.5% (DNA dC->dU-editing enzyme APOBEC-3B, C-terminal domain (Homo sapiens, UniProt Q9UH17); covalent modifier, intact protein mass spectrometry, refers to: adduct +25721 Da; 250 µM, 1 h, 10-fold molar excess).
`CCCCC[C@H](O)/C=C/[C@H]1[C@H](O)CC(=O)[C@@H]1C/C=C\CCCC(=O)O` has an Emax of 78.9 ± 7.62% (PTGER1 (Homo sapiens, UniProt P34995, M117A); IP1 accumulation, agonist; AD293; 1 h, EP1 M117A mutant).
`Cc1ccc(N2CC(C(N)=O)CC2=O)cc1` (stereo not shown) — result for “log fold enrichment”: -0.0404 (Huntingtin (HTT, Homo sapiens, UniProt P42858); binding, affinity selection mass spectrometry; relative to: other proteins in batch).
For `COC(=O)c1cccc(C(=O)c2c[nH]c3ccc(OC)cc23)n1`, the Emax was 60 ± 6% (AHR (Homo sapiens, UniProt P35869); reporter gene, agonist, XRE luciferase; HepG2; relative to: ITE).
For `O=C1C[C@@H](c2ccccc2)Oc2cc(O)cc(O)c21`, the fold change was 1.07 (Aryl hydrocarbon receptor; reporter gene, agonist, luciferase reporter; ZF-4; 13.72 µM; relative to: vehicle control).
With `COc1cc(Nc2ncc3c(n2)-c2ccc(Cl)cc2C(c2c(F)cccc2OC)=NC3)ccc1C(=O)O` the remaining activity was 98% (PAK4; kinase activity; 1 µM).
`CCCCCCCCCCCCC/C=C/[C@@H](O)[C@H](CO)NC(=O)CCCCCCCCCCCCCCCCCCCCC`: “bound endogenous lipid” 11.2 (SET Y135C; lipid binding, GFP pull-down LC-MS/MS; A549 overexpressing GFP-tagged protein; unit not given; relative to: vector-transfected cells).
With `Cn1c2c(c3ccc(Cl)c(Cl)c31)C(C#N)C(C)(C)NC2=O` (stereo not shown) the ΔTm was 1 °C (RPS6KA2 (Homo sapiens, UniProt Q15349); thermal shift; 10 µM, 2 µM protein; higher = stronger binding).
The binding of `COc1ccccc1C(=O)C#Cc1ccc(F)c(F)c1` is reported as 87% (mvfR (Pseudomonas aeruginosa, UniProt Q9I4X0); receptor binding; concentration not given, 1.5 h, with: PQS at 1:1 ratio; relative to: control).
For `CC(=O)c1ccc(C)cc1C`, the Emax was 102 ± 2% (Or8a1 (Mus musculus, UniProt Q60893); odorant-evoked current, agonist; isolated olfactory neurons; relative to: acetophenone saturated response).
`CC[C@H](C)[C@H](NC(=O)[C@H](CCCNC(=N)N)NC(=O)[C@H](Cc1c[nH]cn1)NC(=O)[C@H](CCCNC(=N)N)NC(=O)[C@H](CC(=O)O)NC(=O)[C@H](CC(=O)O)NC(=O)[C@@H](NC(=O)[C@H](CC(=O)O)NC(=O)[C@@H]1CCCN1C(=O)[C@@H](N)CC(C)C)[C@@H](C)O)C(=O)N[C@@H](CCC(=O)O)C(=O)N[C@@H](CCC(=O)O)C(=O)N[C@@H](CCCCN)C(=O)N[C@@H](CCCNC(=N)N)C(=O)N[C@@H](CCCCN)C(=O)N[C@@H](CCCNC(=N)N)C(=O)N[C@H](C(=O)N[C@@H](Cc1ccc(O)cc1)C(=O)N[C@@H](CCC(=O)O)C(=O)N[C@H](C(=O)N[C@@H](Cc1ccccc1)C(=O)N[C@@H](CCCCN)C(=O)N[C@@H](CO)C(=O)N[C@H](C(=O)N[C@@H](CCSC)C(=O)N[C@@H](CCCCN)C(=O)N[C@@H](CCCCN)C(=O)N[C@@H](CO)C(=O)N1CCC[C@H]1C(=O)N[C@@H](C)C(=O)N[C@@H](CC(N)=O)C(=O)NCC(=O)N1CCC[C@H]1C(=O)O)[C@@H](C)CC)[C@@H](C)O)[C@@H](C)O` has a ΔH of -2.5 ± 0.01 kcal/mol (NF-kappa-B inhibitor alpha; binding, ITC; pH 7.5, 293 K, 50 mM NaCl).
The fold change of `Cc1cc2ccccc2c2ccc3ccccc3c12` is reported as 2.21 (Aryl hydrocarbon receptor; reporter gene, agonist, luciferase reporter; ZF-4; 13.72 µM; relative to: vehicle control).
`COc1ccnn2ncc(-c3ccnc(N(C)C)n3)c12` gave a remaining binding of 67% and 100% (ABL1 T315I; KINOMEscan; 1 µM; relative to: control).
For `CN1C(=O)/C(=C2\Nc3ccccc3\C2=N/O)c2ccc(Br)cc21`, the fold change was 20.7 (Aryl hydrocarbon receptor; reporter gene, agonist, luciferase reporter; ZF-4; 0.8 µM; relative to: vehicle control).
`O=C(O)C1=CCNCC1` gave a maximal response of 64% (GABA-A receptor; alpha-1/beta-2/gamma-2 (Rattus norvegicus, UniProt P18508+P62813+P63138); membrane potential, agonist, QP-DHM fluorescence; HEK293 expressing GABAA; relative to: GABA).
